# Assay results pooled from the literature.
# Every numbered part comes from another study and shows a few of its results, in no order. Substitutions count along the parent as printed.

# Block 1
# Target: Histone acetyltransferase KAT6A, both winged helices, GST fusion (KAT6A, Homo sapiens, UniProt Q92794, residues 1-181)
# Technique: protein binding microarray
# Molecule type: double-stranded DNA, one strand shown
# Matrix: in vitro
# Tested at: not given
# Notes: 8-mer, flanks averaged, mean of 2 arrays, mostly near background
# Baseline: not given
# Reading: higher = stronger binding
# Construct (chain): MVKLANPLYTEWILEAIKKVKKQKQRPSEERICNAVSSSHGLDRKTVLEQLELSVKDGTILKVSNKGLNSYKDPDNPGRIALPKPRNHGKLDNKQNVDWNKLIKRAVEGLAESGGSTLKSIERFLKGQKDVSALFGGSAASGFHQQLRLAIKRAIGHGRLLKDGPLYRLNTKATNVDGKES
Strand,E-score
CCGTCCAG,0.0998
ACACTCTC,-0.0474
ATGGCTTA,-0.139
ACATGTTG,-0.0276
CACGGATC,0.201
GAAGTTCC,0.0714
GAGGTCCC,-0.0325
GATAGGAA,-0.113
AGAAAAAC,0.0717
ATCATTAG,-0.122
AGATGTAT,-0.0855
ACTCCAAA,-0.161
CACCGGGC,0.141
TTGATAAA,-0.0637
GGGACCCC,0.0372
GAACACGC,0.247
CGTGTGGC,0.0581
CCTGTCTA,-0.15
ATCTATGG,-0.182
ACAGAACC,0.0204

# Block 2
# Target: RNA binding protein fox-1 homolog 2, RRM domain, GST-SBP tag (RBFOX2, Homo sapiens, UniProt O43251-10, residues 100-194)
# Technique: RNA Bind-n-Seq
# Molecule type: RNA
# Matrix: in vitro
# Tested at: 365 nM
# Notes: natural RNA segment, single round, ends assumed
# Baseline: no-protein control
# Reading: higher = stronger binding
# Constant ends, left off below: GGGAGUUCUACAGUCCGACGAUC … UGGAAUUCUCGGGUGCCAA
# Residues (chain): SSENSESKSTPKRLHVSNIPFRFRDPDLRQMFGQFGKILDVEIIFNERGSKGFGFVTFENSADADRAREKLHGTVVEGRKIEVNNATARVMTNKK
Strand,RBNS enrichment (R)
AUGUGAUUUUGAAUGAGUGUAAAUAAUUUUAAAUAACCUGGCCCUUGGAAUAAAGUUGUUUUCUGUAUUUGCCUGGUGUUGAUUGAGUUUUUAUAUGGGGUCAGUCUUGG,3.16
GAUACAUCUCAGUGACCCAGGGUGGGAGGGCUAUCAGGGUGCAUGGCCCGGGACACGGGCACUCUUCAUGACCCCUCCCCCACCUGGGUUCUUCCUGUGUGGUCCAGAAC,20.5
CCCUUCUACCCCACCUGACCUCUGCAAGAGGGGGCAUUGAUACAUCAUCGGGAAAAAACUUUGCUCCAGGCAUCACUGAUUCCCUCUCCCACCCAAGGAGAACGUUUGGU,0.485
GCACAGUAAACGCAAGAGGGGAUUUGUGUACAAAAGGCAAAAAAAGUAUUUGAUAUCAUUGUACAUAAGAGUUUUCAGAGAUUUCAUAUAUAUCUUUUACAGAGGCUAUU,0.898
AGCAGCCUCUUUUUAAAGUGUGAUGUUUUGCCUUUCCACCUAAAGACCAGGAGAGAAUUUGGGCCCUUACUGACCUGUCCUCCUUCAGGGACAUGAGCAUUCCCUAUAGA,0.402
UUGUGACACUGGCACUAAGCAAUGUGUGCUCUGCCCAGCACACCUGGACAUGUUCUCUCGGCUGGCUUUCUGUUCCCCGCCUGCCUCCAGGAGGCCAGGGUGGUGGUGCU,0.618
UUGUAAAUGGCAGUGGAGACUAUGGUGUUCCUGAGGGGCAAUGGCAGGUCACUCUCCCGAUCUCCCUACUACCAGCCAGGUGCUGUUUCCUUCUGAGCUGUGGAGAUCAC,0.526
ACAGUGGCCCUUCAUGGGAACAAUCUGUUGGAGCAGGGGGUCAGUUCUCUGCUGGGAAUCUACCCCUUUCUGGAGGAGAAACCCAUUCCACCUUAAUAACUUUAUUGUAA,0.219
UUUUGAGGGGCUCAGAAAAUAGGAUUCAGUGUGUAACAUAACAGGUAGGUUGUCAGCAUGCUUGGCAUUCUUCUGUUUUCCUUACCGUUUUACAGACUAUGAAGCUGAGG,8.36
CACCCCCCAGGGAGGACCCAGCCCUGGCUUUGGGGCUAUUCUGCAGGGUUGUCUAGAGGAGUGGGGAGAUGACUUUGGGGGUUCUCCUGAUUCAGUGCCAAUAGCCACAG,0.583
GCAUGUUAUGGGGAGGGGAGGGGGUUCUUCCAGCCUCAGGUCCCAGCUGUCUCACGUUGUUUAUUCUGCGUCCCCUUCUCCAAUAAAACAAGCCAGUUGGGCGUGGUUAU,11.8
GGCAGGAGGUCCCACCAUGUGGACAGACAUAGCCCAAGGAGGCACCACAGGUCUAUGUGUGCUGGGGGAUGUCAGGUGCCACCCAACGCUGUCCUGGUGGUAUUUACAAU,0.275

# Block 3
# Target: ABI1, truncated, D143A, DHFR fusion (Arabidopsis thaliana)
# Technique: DHFR PCA, deep sequencing
# Matrix: yeast
# Notes: methotrexate growth selection, single substitutions
# Added: (+)-ABA 0.032 µM
# Baseline: wild-type fitted maximum
# Reading: higher = stronger binding
# Starting sequence: PYL1, truncated, DHFR fusion (Arabidopsis thaliana); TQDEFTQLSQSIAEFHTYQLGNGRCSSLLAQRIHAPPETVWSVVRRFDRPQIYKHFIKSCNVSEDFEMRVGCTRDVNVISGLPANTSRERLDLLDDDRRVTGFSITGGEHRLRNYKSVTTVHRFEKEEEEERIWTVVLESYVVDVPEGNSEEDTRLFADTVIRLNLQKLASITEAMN
Variant,relative binding score [%]
P50H,-8.54
E130C,21.6
G108I,-4.67
H16M,4.15
F157C,3.6
V161L,61.6
P36A,13.6
G107N,7.79
Y53Q,-4
D75K,19.8
A13F,-0.692
P37V,11.2
V100F,1.23
R74C,3.05
R69K,55.7
V100T,1.22
P37E,-9
A175P,-1.23
G23V,2.94
R113Q,46.2
V137D,-6.08
K168R,17.6
Q10G,28.6

# Block 4
# Target: Prothrombin, mature alpha-thrombin (F2, Homo sapiens, UniProt P00734)
# Technique: aptamer microarray, sandwich
# Molecule type: DNA with 2'F-ANA
# Matrix: in vitro
# Tested at: 200 nM
# Notes: whole 15-mer aptamer, many near background
# Added: Cy3 exosite-II aptamer, 400 nM
# Reading: higher = stronger binding
# Strand: GGTTGGTGTGGTTGG
Modification,mean fluorescence intensity
2'F-ANA at 1 4 5 6 7 8 11 12 13,72.4 a.u.
2'F-ANA at 1 2 3 6 7 8 10 11 12 14 15,54.2 a.u.
2'F-ANA at 1 3 5 8 12 14,55.5 a.u.
2'F-ANA at 2 3 4 6 15,541 a.u.
2'F-ANA at 1 6 7 9 12 14 15,66 a.u.
2'F-ANA at 3 4 5 7 8 12 13 15,134 a.u.
2'F-ANA at 3 4 5 9 10 12 15,78.9 a.u.
2'F-ANA at 2 3 5 8 9 10 15,75.1 a.u.
2'F-ANA at 3 8 9 10 13,538 a.u.
2'F-ANA at 2 4 7 8,460 a.u.
2'F-ANA at 1 4 5 6 10 12 14,46.8 a.u.
2'F-ANA at 1 3 4 5 6 7 8 11 12 14 15,50.6 a.u.
2'F-ANA at 1 3 5 6 7 8 11 12 13 14,46 a.u.
2'F-ANA at 2 4 6 8 9 11 13 14,79.6 a.u.
2'F-ANA at 2 3 5 6 8,111 a.u.
2'F-ANA at 1 3 5 6 7 8 10 11 14 15,51.9 a.u.
2'F-ANA at 1 4 6 7 8 9 11 12 13,157 a.u.
2'F-ANA at 1 2 3 5 7 8 10 11 13 15,65.9 a.u.
2'F-ANA at 2 3 6 9 10 11 14,282 a.u.
2'F-ANA at 4 6 7 8 14,140 a.u.
2'F-ANA at 1 3 4 5 8 10 11 13 15,44.1 a.u.
2'F-ANA at 1 3 8 11 13,314 a.u.
2'F-ANA at 6 7 8 12,894 a.u.
2'F-ANA at 4 5 6 9 10 11 14 15,80.6 a.u.
2'F-ANA at 5 6 8 12 13,157 a.u.

# Block 5
# Target: CCND1, cyclin fold, Cln2 fusion (human)
# Technique: yeast growth competition, sequencing
# Matrix: yeast
# Notes: strong parent motif
# Baseline: not given
# Reading: higher = stronger binding
# Starting sequence: RBL1 docking peptide (human); GSAKRRLFGEDPP; partner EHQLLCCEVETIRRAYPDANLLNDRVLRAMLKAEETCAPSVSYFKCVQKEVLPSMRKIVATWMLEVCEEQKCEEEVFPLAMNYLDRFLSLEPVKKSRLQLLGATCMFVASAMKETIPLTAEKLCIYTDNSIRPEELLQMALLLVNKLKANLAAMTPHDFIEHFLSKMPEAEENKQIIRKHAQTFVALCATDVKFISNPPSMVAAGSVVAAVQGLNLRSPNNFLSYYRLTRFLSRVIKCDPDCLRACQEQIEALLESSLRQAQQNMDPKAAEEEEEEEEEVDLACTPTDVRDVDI
Variant,normalised enrichment score
GSAKRRHFGEDPP [L7H],0.013
GSAKCRLFGEDPP [R5C],0.648
GSAKKRLFGEDPP [R5K],0.4
GSAKRRLFGEDPN [P13N],2.02
SSAKRRLFGEDPP [G1S],2.55
GSAKRRYFGEDPP [L7Y],0.324
GSAKRRLFGERPP [D11R],0.154
GSVKRRLFGEDPP [A3V],1.19
GSAKRRLFGEYPP [D11Y],1.59
DSAKRRLFGEDPP [G1D],1.3
GSAKVRLFGEDPP [R5V],0.879
GSWKRRLFGEDPP [A3W],0.602
GSCKRRLFGEDPP [A3C],1.37
GSAKRRLDGEDPP [F8D],0.911
GSAKRRLLGEDPP [F8L],0.381
GSAKRQLFGEDPP [R6Q],1.82
GSAKRRLFGEDPD [P13D],2.7
GSAKRRLFGEDPH [P13H],2.12
MSAKRRLFGEDPP [G1M],1.51
GSAKRRLFGEDPW [P13W],1.76
GKAKRRLFGEDPP [S2K],1.23
GSAKRRLFGETPP [D11T],1.6
GSAKRALFGEDPP [R6A],0.904

# A few entries again (block 3):
Variant,relative binding score [%]
E130C,21.6
F157C,3.6
P37E,-9
V100F,1.23
R69K,55.7
G108I,-4.67
